Measurements pooled from the literature.
Each line is one published result; not all experiments were run side by side.
Method: steady-state kinetics
B1: LdmS (Staphylococcus aureus, UniProt Q2FWC5); chain MTNNGNEPNLTLSDLYDKDVVYTSRPSYISNPWLKPDEHQSNFLTGRELLIANQLPVIVHEASATDKLHQLFQVIGKEVPNSIYTFNNQQSYENLIKQLAHKENKKIYFQYIHDETILNQQYYALDKTLFVALNNKARIPEWTNGKFLPKRKVVKIEQFENEIKNWEFPLVIKPGDDLPTAGGYGVMICYHDADLQKAITRIKEATAETNSLIIEQKIEEKANYCVQFAYSESLGIQYLGAATQLTDKYGFYNGNENTTNVPEHVIEAGRQIMENGVNQGFFGVAGFDLLVDEDDNVYAIDLNFRQNGSTSMLLLANELNSGYQKFYSYHSKGDNTHFFNTILKYVKEGSLYPLSYYDGDWYGEDKVKSRFGCIWHGDSKETVLENERAFLAELEHY
B2: protein Y93G (Thermus thermophilus, UniProt Q5SKR5); chain MSAPKPFVIGIAGGTASGKTTLAQALARTLGERVALLPMDHYYKDLGHLPLEERLRVNYDHPDAFDLALYLEHAQALLRGLPVEMPVYDFRAGTRSPRRTPVRPAPVVILEGILVLYPKELRDLMDLKVFVDADADERFIRRLKRDVLERGRSLEGVVAQYLEQVKPMHLHFVEPTKRYADVIVPRGGQNPVALEMLAAKALARLARMGAA
B3: TGL3 (Saccharomyces cerevisiae, UniProt P40308); chain MKETAQEYKVSAVIPTLLKNWILRVVYATLDHIPPFVWEILHVITDIYFFWVQKLINYVRPHSRVIYYNAIKKLDECDTYQMWCQQASVVDEITGANLWRRNFFSRRYDFNSVIEQYSILENMLREEKYDVVKEKFSTTGPCMLRNFAGIGDKKLFTKSLMGTKLLIEQYLTRILEGLDILNNQTLTPTSFFQRCKLSLGTTALILQGGSLFGLFHLGVIRGLLLQDLMPNIISGSSMGACVASLFGCLSNEQLKQLLTDDNLLNIIKNDVDLLKSCGYGNLEQHLNLGTLIQNLIHHGYSQDVYLFIRFVMKYIVKEKTFEEVYQITGKVFNIVIHPTDKSCPNLLNYVTTPNVLIKSAIECSLGSGVISEDTSLLCKNLENEIEPFLNINKNKQVKFLTPENANNPSITESPYTRLTELFNVNNFIVSLARPYLAPLVVNDLKHEIKTSKYYYYKHYPNMPPINANTVRKTQRSSSQSPIKAGTVEDLEPEPLMSPVPPSSAVNDSAEYIIPELGIPQLNFTEMEPLAFKFKYHLERKLKNIATMEFRHRMEVLDNLGLLCSLIKRLIIDEKTPRSATEIAVVPRMKSLSLTRIIEGQLNNIPYWIKSGERSTWPALALIKTRCAVEFKLDDIIRARRSR
B4: tsaM1 F253S/H255G/M230N/R216A/S234V/S257H (Comamonas testosteroni, UniProt P94679); chain MFIRNCWYVAAWDTEIPAEGLFHRTLLNEPVLLYRDTQGRVVALENRCCHRSAPLHIGRQEGDCVRCLYHGLKFNPSGACVEIPGQEQIPPKTCIKSYPVVERNRLVWIWMGDPARANPDDIVDYFWHDSPEWRMKPGYIHYQANYKLIVDNLLDFTHLAWVHPTTLGTDSAASLKPVIERDTTGTGKLTITRWYLNDDMSNLHKGVAKFEGKADAWQIYQWSPPALLRNDTGVAPTGTGAPEGRRVPEAVQSRGTHIQTPETETTSHYWFCQARNFDLDDEALTEKIYQGVVVAFEEDRTMIEAHEKILSQVPDRPMVPIAADAGLNQGRWLLDRLLKAENGGTAP
B5: ldh (Lactococcus cremoris, UniProt A2RKA4); chain MADKQRKKVILVGDGAVGSSYAFALVNQGIAQELGIVDLFKEKTQGDAEDLSHALAFTSPKKIYSADYSDASDADLVVLTSGAPQKPGETRLDLVEKNLRITKDVVTKIVASGFKGIFLVAANPVDILTYATWKFSGFPKNRVVGSGTSLDTARFRQALAEKVDVDARSIHAYIMGEHGDSEFAVWSHANVAGVKLEQWFQENDYLNEAEIVELFESVRDAAYSIIAKKGATFYGVAVALARITKAILDDEHAVLPVSVFQDGQYGVSDCYLGQPAVVGAEGVVNPIHIPLNDAEMQKMEASGAQLKAIIDEAFAKEEFASAVKN
B6: enzyme (Thermobifida fusca, UniProt Q47RK4); chain MTDVYILDAVRTPFGRYGGALSGIRPDDLAAHVLRALAERSPGLDPAAVDDVFFGDANGAGEDNRNVARMAALLAGWPTSVPGVTLNRLCGSGMESVIAANRAIAVGDASLAVAGGVESMSRAPWVLPKPAQGFPTGHETLYSTTLGWRMVNPAMPEQWTVSLGESTEQVAATYGISRAEQDAFALRSHERAARAWAEGVFDAEITQIPGAELERDESIRETSAEKLAALKPAFRPDGTITAGNASPLNDGAAALLIGDAAAAERVGREPLARIVSRGVAAVDPDVFGIGPVQAAEIALRRAGIGWDDLSVVELNEAFAAQSLACLKLWPDLDPEIVNPNGGAIAIGHPLGASGARIVGTLAHELHRRGGGWGLAAICIGVGQGLAVVLHR
Chain of UniProt Q04049 (whole entry, looked up): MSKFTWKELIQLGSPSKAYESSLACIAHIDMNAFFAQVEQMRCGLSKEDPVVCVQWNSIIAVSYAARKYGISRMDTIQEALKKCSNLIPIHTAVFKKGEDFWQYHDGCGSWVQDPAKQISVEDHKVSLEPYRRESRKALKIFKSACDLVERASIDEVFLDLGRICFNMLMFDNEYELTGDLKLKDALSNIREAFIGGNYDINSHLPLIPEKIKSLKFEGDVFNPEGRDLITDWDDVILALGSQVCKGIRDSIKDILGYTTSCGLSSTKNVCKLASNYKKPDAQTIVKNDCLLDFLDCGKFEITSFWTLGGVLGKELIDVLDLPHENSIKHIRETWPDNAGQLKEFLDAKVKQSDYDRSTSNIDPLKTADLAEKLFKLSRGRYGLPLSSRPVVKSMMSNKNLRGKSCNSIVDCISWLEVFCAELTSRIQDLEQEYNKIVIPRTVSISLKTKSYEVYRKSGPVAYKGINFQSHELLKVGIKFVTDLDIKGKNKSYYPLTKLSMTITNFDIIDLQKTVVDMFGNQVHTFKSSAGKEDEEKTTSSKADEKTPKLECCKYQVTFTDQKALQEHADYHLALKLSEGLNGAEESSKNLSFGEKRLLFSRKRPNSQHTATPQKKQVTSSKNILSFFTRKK
Chain of UniProt P16152 (whole entry, looked up): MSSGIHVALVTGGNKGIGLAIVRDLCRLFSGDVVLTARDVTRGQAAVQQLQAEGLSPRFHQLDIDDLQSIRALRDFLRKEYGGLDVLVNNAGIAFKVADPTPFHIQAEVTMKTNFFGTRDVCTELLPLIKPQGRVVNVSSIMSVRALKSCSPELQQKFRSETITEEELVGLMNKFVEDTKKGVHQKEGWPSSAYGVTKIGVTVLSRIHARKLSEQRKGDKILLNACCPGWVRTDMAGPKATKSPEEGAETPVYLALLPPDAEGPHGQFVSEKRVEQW
Chain of UniProt Q29437 (whole entry, looked up): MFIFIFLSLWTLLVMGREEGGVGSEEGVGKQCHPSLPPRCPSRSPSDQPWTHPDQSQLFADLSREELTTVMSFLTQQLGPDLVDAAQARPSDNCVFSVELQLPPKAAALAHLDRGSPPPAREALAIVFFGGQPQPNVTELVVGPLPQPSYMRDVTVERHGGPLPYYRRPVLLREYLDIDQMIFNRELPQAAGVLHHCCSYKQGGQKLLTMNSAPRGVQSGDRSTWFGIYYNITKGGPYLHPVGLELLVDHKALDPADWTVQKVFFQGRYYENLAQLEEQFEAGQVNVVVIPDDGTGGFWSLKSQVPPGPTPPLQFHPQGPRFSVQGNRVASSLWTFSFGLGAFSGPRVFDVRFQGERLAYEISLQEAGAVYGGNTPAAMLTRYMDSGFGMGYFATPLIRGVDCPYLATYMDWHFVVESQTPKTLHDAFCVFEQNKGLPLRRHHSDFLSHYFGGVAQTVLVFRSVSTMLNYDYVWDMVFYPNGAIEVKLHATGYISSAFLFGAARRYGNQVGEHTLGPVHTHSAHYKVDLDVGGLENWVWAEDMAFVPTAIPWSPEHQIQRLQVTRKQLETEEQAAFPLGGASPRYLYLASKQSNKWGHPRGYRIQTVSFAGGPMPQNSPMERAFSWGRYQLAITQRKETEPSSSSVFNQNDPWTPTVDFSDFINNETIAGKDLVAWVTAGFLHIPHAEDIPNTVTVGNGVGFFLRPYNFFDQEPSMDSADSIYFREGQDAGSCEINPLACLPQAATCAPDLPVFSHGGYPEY
Chain of UniProt Q47898 (whole entry, looked up): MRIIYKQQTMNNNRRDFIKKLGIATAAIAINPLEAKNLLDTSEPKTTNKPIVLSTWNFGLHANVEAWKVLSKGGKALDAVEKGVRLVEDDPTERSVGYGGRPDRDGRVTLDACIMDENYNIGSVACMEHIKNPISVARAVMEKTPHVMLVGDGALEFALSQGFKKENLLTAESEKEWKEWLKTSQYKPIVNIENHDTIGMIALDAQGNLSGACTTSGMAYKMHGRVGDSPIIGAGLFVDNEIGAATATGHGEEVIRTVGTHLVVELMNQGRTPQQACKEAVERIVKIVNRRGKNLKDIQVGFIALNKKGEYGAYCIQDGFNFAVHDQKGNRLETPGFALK

Substance | substrate | pH | temperature | setting | added | Km [µM]
B1 (LdmS) | Nc1ncnc2c1ncn2[C@@H]1O[C@H](COP(=O)(O)OP(=O)(O)OP(=O)(O)O)[C@@H](O)[C@H]1O | pH 8 | 37 °C | – | L-Asp 50 mM, L-Met 10 mM, MgCl2 5 mM | 310
enzyme (Irpex lacteus, UniProt A0A510I1H7) | CC(=O)Oc1ccc([N+](=O)[O-])cc1 | pH 6 | 30 °C | – | – | 1400
Plasma amine oxidase (Bos taurus, UniProt Q29437) | CNCCOc1ccc2cc(CN)ccc2c1 | pH 7.2 | 30 °C | – | – | 0.209
B2 (protein Y93G) | Nc1ccn([C@@H]2O[C@H](CO)[C@@H](O)[C@H]2O)c(=O)n1 | pH 7.2 | 25 °C | KCl 100 mM | ATP 100–200 µM | 620
B3 (TGL3) | CCCCCCCC/C=C\CCCCCCCC(=O)SCCNC(=O)CCNC(=O)[C@H](O)C(C)(C)COP(=O)(O)OP(=O)(O)OC[C@H]1O[C@@H](n2cnc3c(N)ncnc32)[C@H](O)[C@@H]1OP(=O)(O)O | pH 7.5 | 30 °C | – | LPE | 18
RAD30 (Saccharomyces cerevisiae, UniProt Q04049) | Nc1nc2c(ncn2[C@H]2C[C@H](O)[C@@H](COP(=O)(O)OP(=O)(O)OP(=O)(O)O)O2)c(=O)[nH]1 | pH 7.5 | – | apparent Km, opposite dT, undamaged template, apparent | MgCl2 10 mM | 59
B4 | COc1cc(C(=O)O)ccc1O | – | – | apparent | NADH 1 mM | 13
B5 (ldh) | NC(=O)C1=CN([C@@H]2O[C@H](COP(=O)(O)OP(=O)(O)OC[C@H]3O[C@@H](n4cnc5c(N)ncnc54)[C@H](O)[C@@H]3O)[C@@H](O)[C@H]2O)C=CC1 | pH 7 | 30 °C | apparent | – | 66
B6 (enzyme) | CC(C)(COP(=O)(O)OP(=O)(O)OC[C@H]1O[C@@H](n2cnc3c(N)ncnc32)[C@H](O)[C@@H]1OP(=O)(O)O)[C@@H](O)C(=O)NCCC(=O)NCCSC(=O)CCC(=O)O | pH 7.4 | 37 °C | – | – | 2100
CBR1 (Homo sapiens, UniProt P16152) | C=C1C[C@@H]2[C@H](CC[C@]3(C)C(=O)CC[C@@H]23)[C@@]2(C)C=CC(=O)C=C12 | – | 37 °C | – | – | 265
enzyme (Elizabethkingia miricola, UniProt Q47898) | CC(=O)N[C@@H]1[C@@H](O)[C@H](O)[C@@H](CO)O[C@H]1NC(=O)C[C@H](N)C(=O)O | pH 7.5 | 37 °C | – | – | 90
pyc (Rhizobium etli, UniProt Q2K340) | Nc1ncnc2c1ncn2[C@@H]1O[C@H](COP(=O)(O)OP(=O)(O)OP(=O)(O)O)[C@@H](O)[C@H]1O | pH 7.8 | 30 °C | no pyruvate | NaHCO3 20 mM, acetyl CoA 0.25 mM, Mg2+ 5 mM | 9

A few entries again:
Substance | substrate | pH | temperature | setting | added | Km [µM]
B3 (TGL3) | CCCCCCCC/C=C\CCCCCCCC(=O)SCCNC(=O)CCNC(=O)[C@H](O)C(C)(C)COP(=O)(O)OP(=O)(O)OC[C@H]1O[C@@H](n2cnc3c(N)ncnc32)[C@H](O)[C@@H]1OP(=O)(O)O | pH 7.5 | 30 °C | – | LPE | 18
